# Literature values, collected from citations in different studies.
# Amino acid sequences for entries named in this document (tags omitted). Residues count along the entry.
# UniProt P12390, whole entry, looked up: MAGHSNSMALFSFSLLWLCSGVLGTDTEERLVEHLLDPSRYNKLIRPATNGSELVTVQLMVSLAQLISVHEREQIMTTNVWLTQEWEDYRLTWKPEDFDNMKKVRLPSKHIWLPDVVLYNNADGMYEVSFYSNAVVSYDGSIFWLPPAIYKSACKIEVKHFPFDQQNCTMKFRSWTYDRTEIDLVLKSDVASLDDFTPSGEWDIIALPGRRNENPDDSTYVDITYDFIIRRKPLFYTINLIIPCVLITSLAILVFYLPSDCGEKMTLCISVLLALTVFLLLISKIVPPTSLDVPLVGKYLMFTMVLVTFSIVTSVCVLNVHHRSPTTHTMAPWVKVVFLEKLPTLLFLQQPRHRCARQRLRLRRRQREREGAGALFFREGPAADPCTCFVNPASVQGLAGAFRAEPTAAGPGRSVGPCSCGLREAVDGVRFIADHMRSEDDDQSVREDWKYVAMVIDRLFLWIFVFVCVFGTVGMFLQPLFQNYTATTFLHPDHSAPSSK
# UniProt P43143, whole entry M241L/F253L/V303I/V320I/I327V/A333T/K339T, looked up: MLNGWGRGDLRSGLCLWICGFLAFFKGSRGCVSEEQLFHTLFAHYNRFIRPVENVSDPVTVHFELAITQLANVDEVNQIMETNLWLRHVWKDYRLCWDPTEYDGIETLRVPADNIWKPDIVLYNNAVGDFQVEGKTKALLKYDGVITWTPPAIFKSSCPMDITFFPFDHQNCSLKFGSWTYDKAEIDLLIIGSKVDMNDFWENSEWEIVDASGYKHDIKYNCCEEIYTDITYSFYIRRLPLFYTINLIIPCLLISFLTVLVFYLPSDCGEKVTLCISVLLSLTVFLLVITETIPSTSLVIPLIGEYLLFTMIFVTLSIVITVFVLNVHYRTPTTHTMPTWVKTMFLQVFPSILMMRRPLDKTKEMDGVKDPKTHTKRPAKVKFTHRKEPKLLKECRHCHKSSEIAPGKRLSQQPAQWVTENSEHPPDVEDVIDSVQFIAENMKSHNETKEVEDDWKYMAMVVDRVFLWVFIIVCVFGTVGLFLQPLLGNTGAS
# UniProt P35372, whole entry: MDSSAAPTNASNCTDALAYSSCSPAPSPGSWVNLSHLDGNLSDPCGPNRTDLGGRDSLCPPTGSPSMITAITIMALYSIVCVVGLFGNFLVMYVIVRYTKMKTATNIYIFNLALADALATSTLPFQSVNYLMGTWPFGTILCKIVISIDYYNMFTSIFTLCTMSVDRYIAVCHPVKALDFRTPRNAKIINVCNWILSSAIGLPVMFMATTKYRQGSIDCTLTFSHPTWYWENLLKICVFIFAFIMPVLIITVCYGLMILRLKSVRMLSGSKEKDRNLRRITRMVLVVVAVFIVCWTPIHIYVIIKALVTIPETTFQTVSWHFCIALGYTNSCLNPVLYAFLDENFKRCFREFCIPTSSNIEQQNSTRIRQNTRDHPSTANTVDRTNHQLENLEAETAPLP
# UniProt A0A0H2US84, 1-441: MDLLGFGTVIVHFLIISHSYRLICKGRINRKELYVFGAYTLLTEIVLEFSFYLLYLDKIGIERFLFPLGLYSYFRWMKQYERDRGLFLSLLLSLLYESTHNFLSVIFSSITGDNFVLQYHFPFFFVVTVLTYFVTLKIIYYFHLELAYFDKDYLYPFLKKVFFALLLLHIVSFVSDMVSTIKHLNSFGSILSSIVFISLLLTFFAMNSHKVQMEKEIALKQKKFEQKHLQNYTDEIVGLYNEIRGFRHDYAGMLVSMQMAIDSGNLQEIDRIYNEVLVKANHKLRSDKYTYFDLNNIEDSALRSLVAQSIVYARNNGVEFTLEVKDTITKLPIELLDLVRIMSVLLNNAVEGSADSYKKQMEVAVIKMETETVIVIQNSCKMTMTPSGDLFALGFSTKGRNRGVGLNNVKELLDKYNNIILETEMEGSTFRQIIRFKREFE
# UniProt Q01959, whole entry: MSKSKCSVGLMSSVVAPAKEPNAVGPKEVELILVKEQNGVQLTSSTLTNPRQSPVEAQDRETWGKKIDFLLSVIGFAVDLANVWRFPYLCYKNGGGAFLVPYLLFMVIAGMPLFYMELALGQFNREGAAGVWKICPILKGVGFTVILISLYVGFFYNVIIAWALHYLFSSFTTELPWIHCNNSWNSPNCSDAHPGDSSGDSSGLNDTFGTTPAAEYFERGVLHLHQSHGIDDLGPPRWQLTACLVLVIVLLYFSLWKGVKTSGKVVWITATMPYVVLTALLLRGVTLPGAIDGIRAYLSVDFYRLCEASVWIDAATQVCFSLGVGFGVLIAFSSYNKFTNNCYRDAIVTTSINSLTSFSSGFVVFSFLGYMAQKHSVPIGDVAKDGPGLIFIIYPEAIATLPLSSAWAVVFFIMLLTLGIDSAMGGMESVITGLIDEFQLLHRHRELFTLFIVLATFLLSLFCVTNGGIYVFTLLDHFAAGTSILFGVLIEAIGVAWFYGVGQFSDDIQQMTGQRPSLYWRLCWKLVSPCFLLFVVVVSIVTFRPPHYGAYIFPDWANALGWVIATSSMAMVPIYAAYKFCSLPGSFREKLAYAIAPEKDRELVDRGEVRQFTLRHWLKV
# UniProt O42275, whole entry, looked up: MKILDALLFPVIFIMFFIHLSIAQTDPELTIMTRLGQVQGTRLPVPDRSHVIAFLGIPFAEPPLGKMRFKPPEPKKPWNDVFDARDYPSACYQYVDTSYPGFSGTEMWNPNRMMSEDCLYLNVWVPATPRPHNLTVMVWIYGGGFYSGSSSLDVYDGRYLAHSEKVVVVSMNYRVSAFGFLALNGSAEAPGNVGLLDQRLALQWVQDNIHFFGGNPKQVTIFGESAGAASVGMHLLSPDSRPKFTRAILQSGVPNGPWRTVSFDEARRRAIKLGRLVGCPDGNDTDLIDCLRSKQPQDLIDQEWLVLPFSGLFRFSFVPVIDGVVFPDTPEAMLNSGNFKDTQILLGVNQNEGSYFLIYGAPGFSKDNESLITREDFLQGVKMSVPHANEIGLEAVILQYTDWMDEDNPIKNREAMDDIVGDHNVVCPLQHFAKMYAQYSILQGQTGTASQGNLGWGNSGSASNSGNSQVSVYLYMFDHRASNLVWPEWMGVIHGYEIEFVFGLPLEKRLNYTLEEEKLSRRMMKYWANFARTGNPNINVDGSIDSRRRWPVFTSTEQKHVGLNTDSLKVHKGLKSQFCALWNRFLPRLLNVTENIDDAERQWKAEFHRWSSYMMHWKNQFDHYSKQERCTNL
# UniProt P35462, whole entry: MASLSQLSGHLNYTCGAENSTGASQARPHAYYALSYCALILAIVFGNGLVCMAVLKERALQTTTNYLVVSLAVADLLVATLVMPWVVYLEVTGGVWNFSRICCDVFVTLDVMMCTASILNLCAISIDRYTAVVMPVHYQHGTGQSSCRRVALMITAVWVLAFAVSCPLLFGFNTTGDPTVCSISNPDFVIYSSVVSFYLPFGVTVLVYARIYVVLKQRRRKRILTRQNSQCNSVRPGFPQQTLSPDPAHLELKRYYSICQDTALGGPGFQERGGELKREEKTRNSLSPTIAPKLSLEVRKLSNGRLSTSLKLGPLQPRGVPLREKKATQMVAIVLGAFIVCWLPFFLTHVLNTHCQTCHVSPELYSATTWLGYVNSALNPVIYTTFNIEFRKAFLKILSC
# UniProt Q62645, whole entry, looked up: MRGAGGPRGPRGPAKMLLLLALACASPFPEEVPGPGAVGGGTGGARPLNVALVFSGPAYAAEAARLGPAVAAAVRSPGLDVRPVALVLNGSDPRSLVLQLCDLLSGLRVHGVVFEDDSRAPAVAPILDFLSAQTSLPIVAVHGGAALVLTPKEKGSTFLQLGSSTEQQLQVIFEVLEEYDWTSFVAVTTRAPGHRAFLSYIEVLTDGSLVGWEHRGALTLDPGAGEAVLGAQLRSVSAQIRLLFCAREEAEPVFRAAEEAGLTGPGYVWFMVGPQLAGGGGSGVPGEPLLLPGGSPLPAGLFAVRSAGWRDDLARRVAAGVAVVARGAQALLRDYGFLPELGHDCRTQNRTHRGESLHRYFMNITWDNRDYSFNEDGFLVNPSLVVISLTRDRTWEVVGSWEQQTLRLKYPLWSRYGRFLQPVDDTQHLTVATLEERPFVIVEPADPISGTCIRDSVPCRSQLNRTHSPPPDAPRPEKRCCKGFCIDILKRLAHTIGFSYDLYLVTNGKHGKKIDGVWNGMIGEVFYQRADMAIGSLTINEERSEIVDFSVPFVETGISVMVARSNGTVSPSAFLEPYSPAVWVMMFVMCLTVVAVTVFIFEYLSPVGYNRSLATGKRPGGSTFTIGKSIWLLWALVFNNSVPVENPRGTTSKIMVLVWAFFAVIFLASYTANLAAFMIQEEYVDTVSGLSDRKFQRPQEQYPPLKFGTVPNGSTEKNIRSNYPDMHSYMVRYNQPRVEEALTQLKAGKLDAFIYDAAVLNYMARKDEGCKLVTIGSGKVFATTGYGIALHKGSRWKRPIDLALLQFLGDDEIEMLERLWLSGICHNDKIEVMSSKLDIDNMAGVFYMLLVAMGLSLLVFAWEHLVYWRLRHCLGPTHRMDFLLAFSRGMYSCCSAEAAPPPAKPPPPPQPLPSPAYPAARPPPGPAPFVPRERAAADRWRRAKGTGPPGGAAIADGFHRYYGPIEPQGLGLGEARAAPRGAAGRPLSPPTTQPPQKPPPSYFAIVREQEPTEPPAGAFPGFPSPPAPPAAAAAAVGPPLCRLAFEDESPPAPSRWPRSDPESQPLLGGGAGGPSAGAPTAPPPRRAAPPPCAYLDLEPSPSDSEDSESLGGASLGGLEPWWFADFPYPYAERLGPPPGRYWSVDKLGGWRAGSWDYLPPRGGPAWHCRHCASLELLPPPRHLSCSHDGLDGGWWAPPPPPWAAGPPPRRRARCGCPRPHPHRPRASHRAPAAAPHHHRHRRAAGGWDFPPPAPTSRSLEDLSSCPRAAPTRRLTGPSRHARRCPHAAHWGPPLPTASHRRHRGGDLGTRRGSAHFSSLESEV
# UniProt P21554, whole entry: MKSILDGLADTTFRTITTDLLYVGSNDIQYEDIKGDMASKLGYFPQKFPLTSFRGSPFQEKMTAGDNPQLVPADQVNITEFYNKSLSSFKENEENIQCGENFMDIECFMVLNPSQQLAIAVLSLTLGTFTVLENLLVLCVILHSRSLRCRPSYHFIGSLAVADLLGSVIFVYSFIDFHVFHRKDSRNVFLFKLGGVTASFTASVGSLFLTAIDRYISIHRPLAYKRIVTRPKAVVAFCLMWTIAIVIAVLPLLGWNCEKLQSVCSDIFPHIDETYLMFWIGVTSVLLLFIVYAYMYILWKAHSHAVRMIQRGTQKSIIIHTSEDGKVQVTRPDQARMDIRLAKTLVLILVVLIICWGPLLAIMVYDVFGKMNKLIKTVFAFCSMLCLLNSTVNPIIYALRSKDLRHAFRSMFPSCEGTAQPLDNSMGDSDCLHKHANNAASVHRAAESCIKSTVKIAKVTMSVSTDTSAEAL
# UniProt P41145, whole entry: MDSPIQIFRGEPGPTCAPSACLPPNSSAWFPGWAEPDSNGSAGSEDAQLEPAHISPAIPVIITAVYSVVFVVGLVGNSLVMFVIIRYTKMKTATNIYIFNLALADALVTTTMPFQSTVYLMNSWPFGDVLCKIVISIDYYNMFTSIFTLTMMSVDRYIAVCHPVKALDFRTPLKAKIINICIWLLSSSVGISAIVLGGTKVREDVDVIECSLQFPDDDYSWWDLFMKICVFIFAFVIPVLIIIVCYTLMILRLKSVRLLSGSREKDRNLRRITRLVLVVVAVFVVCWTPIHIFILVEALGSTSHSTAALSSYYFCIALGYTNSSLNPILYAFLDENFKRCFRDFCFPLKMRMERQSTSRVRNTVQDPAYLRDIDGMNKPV
# UniProt P22303, whole entry, looked up: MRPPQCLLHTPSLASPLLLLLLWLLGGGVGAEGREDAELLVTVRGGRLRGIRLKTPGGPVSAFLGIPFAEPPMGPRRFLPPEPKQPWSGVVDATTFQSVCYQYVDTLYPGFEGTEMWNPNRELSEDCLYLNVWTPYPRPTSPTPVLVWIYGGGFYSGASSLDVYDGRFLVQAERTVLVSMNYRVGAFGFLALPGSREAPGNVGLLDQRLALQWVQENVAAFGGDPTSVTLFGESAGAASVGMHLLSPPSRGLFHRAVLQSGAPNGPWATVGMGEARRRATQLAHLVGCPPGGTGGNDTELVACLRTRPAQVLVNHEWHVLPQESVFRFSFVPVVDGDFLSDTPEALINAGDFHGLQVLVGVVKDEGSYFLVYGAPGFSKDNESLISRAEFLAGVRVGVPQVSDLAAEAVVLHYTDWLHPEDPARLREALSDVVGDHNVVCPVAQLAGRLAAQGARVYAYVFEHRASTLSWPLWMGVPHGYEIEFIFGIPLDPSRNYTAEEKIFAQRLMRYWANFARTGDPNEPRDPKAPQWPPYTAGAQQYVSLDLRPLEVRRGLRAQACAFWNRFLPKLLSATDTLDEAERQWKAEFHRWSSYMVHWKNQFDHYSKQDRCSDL
# ± marks the error that the study gave.
# Chrna3/Chrnb2/Chrna6 with beta3 subunit: Chrna3/Chrnb2/Chrna6, with beta3 subunit (Rattus norvegicus, UniProt P04757+P12390+P43143)
# OPRM1: Mu-type opioid receptor (OPRM1, Homo sapiens, UniProt P35372)
Substance,tested on,assay,system,setting,quantity,value
NC(=O)c1ccc(-c2cc(C(=O)O)cc(-n3cc(-c4ccc(C(F)(F)F)cc4)nn3)c2)cc1,,,simulated gastric fluid,,half-life,> 4 h
CC(C)C[C@@H]1NC(=O)[C@H](CCC(=O)O)NC(=O)[C@@H]2CCCN2C(=O)[C@H](Cc2c[nH]cn2)NC(=O)[C@H](CC(N)=O)NC(=O)[C@H](CC(C)C)NC(=O)[C@H](CO)NC(=O)[C@@H]2CSSC[C@H](NC(=O)CN)C(=O)N[C@@H](CSSC[C@@H](C(N)=O)NC1=O)C(=O)N[C@@H](CO)C(=O)N[C@@H](Cc1c[nH]cn1)C(=O)N1CCC[C@H]1C(=O)N[C@@H](C)C(=O)N2,Chrna3/Chrnb2/Chrna6 with beta3 subunit,antagonist,,,IC50,0.0188 µM
CC[C@H](C)[C@H](NC(=O)[C@H](CCCNC(=N)N)NC(=O)[C@H](CCSC)NC(=O)[C@H](C)N)C(=O)N[C@@H](CO)C(=O)N[C@@H](CCCNC(=N)N)C(=O)N[C@H](C(=O)N[C@H](C(=O)N[C@@H](CC(C)C)C(=O)N[C@H](CC(=O)O)C(=O)N[C@@H](Cc1ccccc1)C(=O)N[C@@H](CC(C)C)C(=O)N[C@@H](Cc1ccccc1)C(=O)N[C@@H](CC(C)C)C(=O)N[C@@H](CCCNC(=N)N)C(=O)N[C@@H](CCCCN)C(=O)N[C@@H](CCCCN)C(=O)O)[C@@H](C)CC)[C@@H](C)CC,"Competence histidine kinase ComD (Streptococcus pneumoniae serotype 4, UniProt A0A0H2US84)","reporter gene, antagonist","Streptococcus pneumoniae, TIGR4 pcomX::lacZ",,IC50,0.0565 µM
CN[C@@H](C)Cc1ccccc1,"SLC6A3 (Homo sapiens, UniProt Q01959)","[3H]dopamine release, releaser",HEK293 expressing target,,EC50,0.435 µM
CCCN(CCC)c1c(C#N)cc(S(=O)(=O)Nc2ccccc2)cc1C#N,Vero,viability,,,IC50,16 ± 1 µM
CNC(=O)/C=C(\C)OP(=O)(OC)OC,"ache (Electrophorus electricus, UniProt O42275)","enzyme activity, inhibitor",,,IC50,~10 µM
NC(=O)[C@H](Cc1ccccc1)NC(=O)[C@H](CCCN=C(N)N)NC(=O)C12CC3CC(CC(C3)C1)C2,OPRM1,binding,,,Ki,> 5 µM
Clc1ccc(N2CCN(Cc3cnn4ccccc34)CC2)cc1,"DRD3 (Homo sapiens, UniProt P35462)",binding,,,Ki,5 ± 0.121 µM
COc1ccc(OC[C@H]2c3cccn3CC(=O)N2Cc2cccc(F)c2)cc1,"Glutamate receptor ionotropic, NMDA 2D, with GluN1 (Rattus norvegicus, UniProt Q62645)","ion current, positive allosteric modulator",GluN1/GluN2D receptors,with: glutamate and glycine,doubling concentration,2 µM
[3H]DAMGO,OPRM1,"binding, radioligand, radioligand saturation binding",,,Kd,0.00172 ± 0.000258 µM
CCOc1ccc(Cc2nc3cc(C(=O)N(CC)CC)ccc3n2CCC(C)C)cc1,"CNR1 (Homo sapiens, UniProt P21554)",binding,,,Ki,> 5 µM
CC(C)C[C@@H]1NC(=O)[C@H](CCC(=O)O)NC(=O)[C@@H]2CCCN2C(=O)[C@H](Cc2c[nH]cn2)NC(=O)[C@H](CC(N)=O)NC(=O)[C@H](C)NC(=O)[C@H](CO)NC(=O)[C@@H]2CSSC[C@H](NC(=O)CN)C(=O)N[C@@H](CSSC[C@@H](C(N)=O)NC1=O)C(=O)N[C@@H](CO)C(=O)N[C@@H](Cc1c[nH]cn1)C(=O)N1CCC[C@H]1C(=O)N[C@@H](C)C(=O)N2,Chrna3/Chrnb2/Chrna6 with beta3 subunit,antagonist,,,IC50,0.0024 µM
COC(=O)[C@@H]1C[C@H](OC(=O)CSC#N)C(=O)[C@H]2[C@@]1(C)CC[C@H]1C(=O)O[C@H](c3ccoc3)C[C@]21C,"OPRK1 (Homo sapiens, UniProt P41145)",binding,,,Ki,0.0006 ± 0.0002 µM
N#C/C=C/c1ccc2c(S(=O)(=O)n3nc(Nc4ccc(C#N)c(Cl)c4)nc3N)cccc2c1,"Gag-Pol polyprotein, reverse transcriptase (gag-pol, Human immunodeficiency virus 1, UniProt P03366)",,,,IC50,0.23 µM
dimethyl sulfoxide,"ACHE (Homo sapiens, UniProt P22303)",,,,Ki,88700 µM

# For quick reference, copied from above:
Substance,tested on,assay,system,setting,quantity,value
NC(=O)c1ccc(-c2cc(C(=O)O)cc(-n3cc(-c4ccc(C(F)(F)F)cc4)nn3)c2)cc1,,,simulated gastric fluid,,half-life,> 4 h
CCOc1ccc(Cc2nc3cc(C(=O)N(CC)CC)ccc3n2CCC(C)C)cc1,"CNR1 (Homo sapiens, UniProt P21554)",binding,,,Ki,> 5 µM
